Measurements collected from several papers.
Each numbered part is a random draw from the data of one study; scales do not carry over between parts. Changes are numbered by the printed parent chain.

Series 1
Target: Interferon regulatory factor 7, full length, phosphomimetic (IRF7, Homo sapiens, UniProt Q92985, residues 1-503, S471D/S472D/S475D/S476D/S477D/S483D/S484D/S487D)
Sequence of UniProt Q92985 (whole entry, unmodified, looked up): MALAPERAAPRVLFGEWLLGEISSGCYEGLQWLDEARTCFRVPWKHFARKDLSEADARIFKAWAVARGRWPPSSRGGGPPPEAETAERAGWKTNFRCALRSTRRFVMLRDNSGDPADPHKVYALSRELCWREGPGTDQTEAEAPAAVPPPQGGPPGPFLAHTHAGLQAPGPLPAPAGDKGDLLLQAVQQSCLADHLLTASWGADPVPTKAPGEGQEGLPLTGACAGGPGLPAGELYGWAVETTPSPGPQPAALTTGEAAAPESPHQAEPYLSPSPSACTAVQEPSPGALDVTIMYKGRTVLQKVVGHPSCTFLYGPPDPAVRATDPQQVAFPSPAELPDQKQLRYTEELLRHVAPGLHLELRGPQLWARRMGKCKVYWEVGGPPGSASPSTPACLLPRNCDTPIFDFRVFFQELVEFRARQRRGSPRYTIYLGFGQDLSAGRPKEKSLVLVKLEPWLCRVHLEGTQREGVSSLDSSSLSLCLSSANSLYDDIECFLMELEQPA
Method: protein-binding microarray
Molecule type: double-stranded DNA, one strand shown
Sample: in vitro
Concentration: 2200 nM top
Notes: 60-bp whole probe
With: salmon DNA 0.4 mg/ml
Relative to: random background probes
Direction: higher = stronger binding
Constant ends, left off below: GCCTAGCAC … GTCTTGATTCGCTTGACGCTGCTG
`AACGGACTGGGTCTCGGGACGTGCTAG`: “fitted relative affinity” -0.816 z-score.
For `GACCATTTCAGTCTCGAGACGTGCTAG`, “fitted relative affinity” read 1.39 z-score.
`GACGTACTGGGTCTCGGGACGTGCTAG`: “fitted relative affinity” -0.254 z-score.
`TTAGGACTGCTACTGCCTTAGTGCTAG` — result for “fitted relative affinity”: -0.288 z-score.
`GACGGTTTAGGTTTCGGGACGTGCTAG` — result for “fitted relative affinity”: 3.37 z-score.
`GACCGACTGGGTCTCGGGACGTGCTAG` — result for “fitted relative affinity”: -0.545 z-score.
`TTAGGTTACGACTATCGGTTAGTGCTA`: “fitted relative affinity” 0.418 z-score.

Series 2
Target: RNA binding protein fox-1 homolog 2, RRM domain, GST-SBP tag (RBFOX2, Homo sapiens, UniProt O43251-10, residues 100-194)
Method: RNA Bind-n-Seq
Molecule type: RNA
Sample: in vitro
Concentration: 365 nM
Notes: natural RNA segment, single round, ends assumed
Relative to: no-protein control
Direction: higher = stronger binding
For `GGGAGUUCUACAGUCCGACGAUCUAAGUUGGUCUUUCCCGGUGCUAUACUUGCCUCCUCUCCACGGAAGAAUUGUUCAGGAGAUGCGCUUGGGGUGAUGACUUCCUUAAAUACACGCUGUAGGGGGUGAAGAGUGGAAUUCUCGGGUGCCAA`, “RBNS enrichment (R)” read 0.565.
Under “RBNS enrichment (R)”, `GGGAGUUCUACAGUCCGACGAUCGUUGCUGUGUAGUGUUAAUUUAUUCUGAGGAUGUGUGGCAAGCGCCUGGCACUGGGUAAAUGUAUAGUUAAAGUAGUAGCCACAACGUUGUUCUUAUUCCUAGGUCAGGGUGGAAUUCUCGGGUGCCAA` is recorded as 0.863.
`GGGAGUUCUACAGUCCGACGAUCGUGGCUGUACUUCAGAUCAUCAAAGCAAGAGAAAGAAUGUGCUGAGUGUUUUCUUCCCUGUGCCUUAAGGGCCCUCAUCCCAGCAGCCCAUAUAGCCAGCAAAUGGAGGAUGGAAUUCUCGGGUGCCAA` — result for “RBNS enrichment (R)”: 0.814.
`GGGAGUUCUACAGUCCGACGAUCCUCCACCACAGAACUAGACUUGUUUUUUAAGAAAAUAUAUAUUAUAUAUAGAGAGAAUUGGUCUCGUUUAAACACGCCGAACCUCACCAUAUGGAGCCAGACAUUGGGACUGGAAUUCUCGGGUGCCAA`: “RBNS enrichment (R)” 1.19.
For `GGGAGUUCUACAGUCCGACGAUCAGCAAGUUUCUUCUGCAGCCCUGCCGUGCUUGAGGAAGGGCCUGAGGAGGAAGGGACACUCACUCUGGAAGCUCUGCAGCCACUCCGUGCCAGGUGCCUUAACUCUGGGAUGGAAUUCUCGGGUGCCAA`, “RBNS enrichment (R)” read 2.73.
`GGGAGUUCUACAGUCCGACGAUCAUCAUGAUUUUGCAGAACCUUUGGUUUGGACAGUUCUGUUCUUUUGGAUUUGGAAUAGAUUACAUAGGAGUAUGAAGUAUGCUGUAAAUAAAAGUACAAGCCAGUGCUUUUGGAAUUCUCGGGUGCCAA` — result for “RBNS enrichment (R)”: 0.976.

Series 3
Target: CCNA2, cyclin fold, Cln2 fusion (human)
Method: yeast growth competition, sequencing
Sample: yeast
Notes: strong parent motif
Relative to: not given
Direction: higher = stronger binding
Parent: GMNC docking peptide (human); KNAKRNLSSEFAN
For `KNAKRNLSSEFTN [A12T]`, “normalised enrichment score” read 5.11.
For `KNANRNLSSEFAN [K4N]`, “normalised enrichment score” read 1.91.
For `KNAKRVLSSEFAN [N6V]`, “normalised enrichment score” read 0.658.
`KNAKRNLSQEFAN [S9Q]` — result for “normalised enrichment score”: 5.11.
`KNAKRNLYSEFAN [S8Y]`: “normalised enrichment score” 5.67.
`KNAKRNLMSEFAN [S8M]`: “normalised enrichment score” 6.58.
For `KNALRNLSSEFAN [K4L]`, “normalised enrichment score” read 1.87.

Further values, each from its own experiment
`PhoQ, residues 284 288 289 292 302 303 AEGLLW` has a fold induction of 3 (PhoP, residues 12 14 15 18 19 HLGGL (Escherichia coli, UniProt P23836); Sort-seq, item: YFP reporter; E. coli; PhoQ-PhoP variant library, with: 10 µM Mg2+; relative to: high Mg2+ state, higher = stronger signaling).

For quick reference, copied from above (series 3):
`KNAKRNLSQEFAN [S9Q]` — result for “normalised enrichment score”: 5.11.
`KNAKRNLYSEFAN [S8Y]`: “normalised enrichment score” 5.67.
`KNAKRNLMSEFAN [S8M]`: “normalised enrichment score” 6.58.
